Assay results pooled from the literature.
Lines come from different studies, so protocols differ. Values joined by “and” are separate records of one study, mostly repeats; a detail may differ. ± marks the error that the study gave.

For `O=C1NC2(CC2)COc2ncc(F)cc2[C@H]2COCCN2c2ccn3ncc1c3n2`, the organ weight was 0.121 ± 0.014 g (Sprague-Dawley rat, female, ovaries; oral, 10 mg/kg/day, 4 weeks).
`N=C(N)NCCC[C@@H](NC(=O)[C@H](N)Cc1c[nH]c2ccccc12)C(=O)N[C@H](CCCCN)C(=O)N[C@H](Cc1c[nH]c2ccccc12)C(=O)N[C@H](CCCNC(=N)N)C(=O)N[C@H](CCCCN)C(=O)N[C@H](Cc1c[nH]c2ccccc12)C(=O)N[C@H](CCCNC(=N)N)C(=O)N[C@H](CCCCN)C(=O)N[C@H](Cc1c[nH]c2ccccc12)C(=O)N[C@H](CCCNC(=N)N)C(=O)N[C@H](CCCCN)C(N)=O`: “cystatin C level” 40.2 ng/mL (mouse, serum; 30 mg/kg).
The body weight of `COc1cnc2cccc(N3CCc4c(cc(Cn5ccnc5)cc4-c4cn(C)nc4C(F)(F)F)C3=O)c2c1` is reported as 21.4 g and 24.3 g and 25.8 g and 23.4 g and 22.2 g and 22.8 g and 25.3 g and 23.7 g (BALB/c nude mice, MV4-11 xenograft; intraperitoneal, 50 mg/kg, day 10).
`CC1COCCN1c1nc(NCc2cccnc2C(F)(F)F)c2cccnc2n1` (stereo not drawn) — result for toxicological findings: “no effect” (Sprague Dawley rat; oral, 100 mg/kg once daily, 7 days).
`CSCC[C@H](N)C(=O)N[C@@H](C)C(=O)N[C@@H](Cc1c[nH]c2ccccc12)C(=O)N[C@@H](Cc1c[nH]cn1)C(=O)N[C@@H](CC(=O)O)C(=O)N[C@@H](CC(=O)O)C(=O)N[C@@H](CCC(=O)O)C(=O)N[C@@H](CCC(=O)O)C(=O)N[C@@H](Cc1ccccc1)C(=O)N[C@@H](C)C(=O)N[C@@H](CCCNC(=N)N)C(=O)N[C@@H](CCCNC(=N)N)C(=O)N[C@@H](CCCNC(=N)N)C(=O)N[C@@H](CCCNC(=N)N)C(=O)NCCCCCC(=O)NCCCCC(NC(=O)CCCCCNC(=O)[C@H](CCCNC(=N)N)NC(=O)[C@H](CCCNC(=N)N)NC(=O)[C@H](CCCNC(=N)N)NC(=O)[C@H](CCCNC(=N)N)NC(=O)[C@H](C)NC(=O)[C@H](Cc1ccccc1)NC(=O)[C@H](CCC(=O)O)NC(=O)[C@H](CCC(=O)O)NC(=O)[C@H](CC(=O)O)NC(=O)[C@H](CC(=O)O)NC(=O)[C@H](Cc1c[nH]cn1)NC(=O)[C@H](Cc1c[nH]c2ccccc12)NC(=O)[C@H](C)NC(=O)[C@@H](N)CCSC)C(=O)NCCCCC(NC(=O)C(CCCCNC(=O)CCCCCNC(=O)[C@H](CCCNC(=N)N)NC(=O)[C@H](CCCNC(=N)N)NC(=O)[C@H](CCCNC(=N)N)NC(=O)[C@H](CCCNC(=N)N)NC(=O)[C@H](C)NC(=O)[C@H](Cc1ccccc1)NC(=O)[C@H](CCC(=O)O)NC(=O)[C@H](CCC(=O)O)NC(=O)[C@H](CC(=O)O)NC(=O)[C@H](CC(=O)O)NC(=O)[C@H](Cc1c[nH]cn1)NC(=O)[C@H](Cc1c[nH]c2ccccc12)NC(=O)[C@H](C)NC(=O)[C@@H](N)CCSC)NC(=O)CCCCCNC(=O)[C@H](CCCNC(=N)N)NC(=O)[C@H](CCCNC(=N)N)NC(=O)[C@H](CCCNC(=N)N)NC(=O)[C@H](CCCNC(=N)N)NC(=O)[C@H](C)NC(=O)[C@H](Cc1ccccc1)NC(=O)[C@H](CCC(=O)O)NC(=O)[C@H](CCC(=O)O)NC(=O)[C@H](CC(=O)O)NC(=O)[C@H](CC(=O)O)NC(=O)[C@H](Cc1c[nH]cn1)NC(=O)[C@H](Cc1c[nH]c2ccccc12)NC(=O)[C@H](C)NC(=O)[C@@H](N)CCSC)C(N)=O` (stereo partly drawn): “mean tissue distribution” 7.44% (C57BL/6 mouse female, liver; dose not given, 6 h; baseline: total).
`N#[11C]c1ccc(-c2csc(NN=C3CCCC3)n2)cc1` gave a radioactivity uptake of 10.7 ± 1.1 %ID/g (C57BL/6 mice, male, liver; intravenous, 3 MBq, 15 min).
With `CCCCCCCCCCCCCCCC(=O)N[C@@H](CCC(=O)NCCOCCOCCC(=O)NCCOCCOCCC(=O)NCCCC[C@H](NC(=O)[C@H](CC(=O)O)NC(=O)[C@H](CC(C)C)NC(=O)[C@H](Cc1ccc(O)cc1)NC(=O)[C@H](CCCCN)NC(=O)[C@H](CO)NC(=O)[C@H](Cc1ccc(O)cc1)NC(=O)[C@H](CC(=O)O)NC(=O)[C@H](CO)NC(=O)[C@@H](NC(=O)[C@H](Cc1ccccc1)NC(=O)[C@@H](NC(=O)CNC(=O)[C@H](CCC(N)=O)NC(=O)[C@@H](CO)NC(=O)[C@@H](N)Cc1c[nH]cn1)[C@@H](C)O)[C@@H](C)O)C(=O)N[C@@H](CCCNC(=N)N)C(=O)N[C@@H](CCCNC(=N)N)C(=O)N[C@@H](C)C(=O)N[C@@H](CCC(N)=O)C(=O)N[C@@H](CC(=O)O)C(=O)N[C@@H](Cc1ccccc1)C(=O)N[C@H](C(=O)N[C@@H](CCC(N)=O)C(=O)N[C@@H](Cc1c[nH]c2ccccc12)C(=O)N[C@@H](CC(C)C)C(=O)N[C@@H](CC(C)C)C(=O)N[C@@H](CC(N)=O)C(=O)N[C@H](C(=O)NCC(=O)NCC(=O)N1CCC[C@H]1C(=O)N[C@@H](CO)C(=O)N[C@@H](CO)C(=O)NCC(=O)N[C@@H](C)C(=O)N1CCC[C@H]1C(=O)N1CCC[C@H]1C(=O)N1CCC[C@H]1C(=O)N[C@@H](CO)C(N)=O)[C@@H](C)O)C(C)C)C(=O)O` the total bilirubin was 1.4 ± 0.1 µmol/L (Sprague-Dawley rat, male; subcutaneous, 100 µg/kg once daily, 14 days).
`CC(C)Oc1c(NC(=O)c2ccc(NC(=O)[C@H](CC(N)=O)NC(=O)c3ccc(/N=N/c4ccccc4)cc3)cc2)ccc(C(=O)Nc2ccc(C(=O)O)cc2)c1O` has a thermal half-life of 1.8 h (absorbance; DMSO; 50 °C, PSS to ground state relaxation).
For `CN1Cc2cc(Cl)ccc2-n2c(nnc2C2CCN(c3cccc([18F])n3)CC2)C1`, “total volume of distribution” read 1.05 ± 0.42 mL/cm3 (PET two-tissue compartment model; rhesus monkey, occipital cortex; intravenous, dose not given, 90 min scan, baseline scan).
For `CC1(C)C(=O)N(c2ccc(C#N)c(C(F)(F)F)c2)C(=S)N1c1ccc(C(=O)O)c(F)c1`, the AUC was 11400 ng·h/mL (male human, plasma; oral, 40 mg, single dose, fasted).
`CC[C@H](C)[C@H](NC(=O)[C@H](CCCCN)NC(=O)CNC(=O)[C@H](CC(C)C)NC(=O)[C@H](Cc1ccccc1)NC(=O)[C@H](CCCCN)NC(=O)[C@H](CO)NC(=O)[C@H](Cc1ccccc1)NC(=O)[C@H](Cc1c[nH]c2ccccc12)NC(=O)[C@H](CCC(N)=O)NC(=O)[C@@H](NC(=O)[C@H](Cc1ccccc1)NC(=O)CCCCCNC(=O)CN1CCN(CC(=O)O)CCN(CC(=O)O)CCN(CC(=O)O)CC1)C(C)C)C(=O)N[C@@H](CCC(=O)O)C(=O)N1CCC[C@H]1C(=O)N[C@@H](CC(=O)O)C(=O)N[C@H](C(=O)N[C@@H](CO)C(=O)N[C@@H](CCC(N)=O)C(=O)N[C@H](C(=O)N[C@@H](CCC(N)=O)C(=O)N[C@@H](CC(=O)O)C(=O)N1CCC[C@H]1C(=O)N[C@@H](CC(N)=O)C(=O)N[C@@H](CC(=O)O)C(=O)N[C@@H](CCC(N)=O)C(=O)N[C@@H](Cc1ccc(O)cc1)C(=O)N[C@@H](CCC(=O)O)C(=O)N1CCC[C@H]1C(=O)N[C@@H](Cc1ccccc1)C(=O)O)C(C)C)C(C)C` [copper-64 labelled] has an SUVmean of 4.34 SUV (dynamic PET; mouse, CT26 tumour, checkpoint inhibitor-treated, tumour; intravenous, 100 µCi/mouse, 3500 s).
For `COc1cc(OC)c2c(=O)cc(-c3cc(C)c(OCCCN4CCN(C)CC4)c(C)c3)oc2c1`, the fold induction was 13.8 ± 9 fold (item: Il6 mRNA; C57BL/6J mouse, male, bleomycin lung injury, lung; oral, 10 mg/kg, together with: bleomycin; baseline: untreated).
